Measurements pooled from the literature.
A part holds a random share of what one study measured. Positions count from the first letter of the parent shown.
Sequence of UniProt Q9Y6M4 (whole entry, looked up): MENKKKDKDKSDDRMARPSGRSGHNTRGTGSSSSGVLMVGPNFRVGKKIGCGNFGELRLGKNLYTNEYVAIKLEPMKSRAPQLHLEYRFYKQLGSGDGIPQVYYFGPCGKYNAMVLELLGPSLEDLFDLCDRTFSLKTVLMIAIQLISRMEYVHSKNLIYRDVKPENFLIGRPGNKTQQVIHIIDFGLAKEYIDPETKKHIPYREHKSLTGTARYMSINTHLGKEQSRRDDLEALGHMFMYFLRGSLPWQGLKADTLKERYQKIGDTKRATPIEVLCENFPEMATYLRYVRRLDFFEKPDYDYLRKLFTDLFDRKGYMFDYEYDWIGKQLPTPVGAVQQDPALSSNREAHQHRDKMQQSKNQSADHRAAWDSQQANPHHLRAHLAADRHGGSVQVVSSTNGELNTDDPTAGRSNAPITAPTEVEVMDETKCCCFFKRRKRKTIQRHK
Sequence of UniProt P30291 (whole entry, looked up): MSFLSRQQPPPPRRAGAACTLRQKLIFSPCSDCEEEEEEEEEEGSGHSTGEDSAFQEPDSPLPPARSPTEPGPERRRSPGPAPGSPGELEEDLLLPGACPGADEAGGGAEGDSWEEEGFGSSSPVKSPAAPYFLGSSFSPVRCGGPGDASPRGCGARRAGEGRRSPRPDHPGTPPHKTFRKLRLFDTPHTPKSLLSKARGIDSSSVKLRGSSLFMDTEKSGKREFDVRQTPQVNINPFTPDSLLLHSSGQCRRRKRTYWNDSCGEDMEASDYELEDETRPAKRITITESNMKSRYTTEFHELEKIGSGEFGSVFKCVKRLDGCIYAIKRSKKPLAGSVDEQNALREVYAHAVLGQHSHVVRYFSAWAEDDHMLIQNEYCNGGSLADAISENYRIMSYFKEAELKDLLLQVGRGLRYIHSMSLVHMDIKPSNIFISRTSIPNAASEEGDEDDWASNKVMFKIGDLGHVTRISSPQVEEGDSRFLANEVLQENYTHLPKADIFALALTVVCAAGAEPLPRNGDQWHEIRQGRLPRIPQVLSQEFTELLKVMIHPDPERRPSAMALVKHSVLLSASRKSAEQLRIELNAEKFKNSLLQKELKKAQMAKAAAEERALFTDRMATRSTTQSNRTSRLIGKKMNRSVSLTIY
Sequence of UniProt P27361 (whole entry, looked up): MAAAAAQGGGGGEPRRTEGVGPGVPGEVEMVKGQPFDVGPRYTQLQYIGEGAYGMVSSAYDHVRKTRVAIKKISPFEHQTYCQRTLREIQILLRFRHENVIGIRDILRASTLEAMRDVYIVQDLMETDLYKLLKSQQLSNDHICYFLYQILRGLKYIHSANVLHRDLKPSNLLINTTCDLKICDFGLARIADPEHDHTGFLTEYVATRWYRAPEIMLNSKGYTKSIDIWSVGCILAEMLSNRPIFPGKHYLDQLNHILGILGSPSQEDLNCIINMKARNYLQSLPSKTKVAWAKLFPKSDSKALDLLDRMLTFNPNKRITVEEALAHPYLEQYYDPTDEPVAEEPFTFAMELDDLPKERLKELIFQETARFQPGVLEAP
Sequence of UniProt Q99558 (whole entry, looked up): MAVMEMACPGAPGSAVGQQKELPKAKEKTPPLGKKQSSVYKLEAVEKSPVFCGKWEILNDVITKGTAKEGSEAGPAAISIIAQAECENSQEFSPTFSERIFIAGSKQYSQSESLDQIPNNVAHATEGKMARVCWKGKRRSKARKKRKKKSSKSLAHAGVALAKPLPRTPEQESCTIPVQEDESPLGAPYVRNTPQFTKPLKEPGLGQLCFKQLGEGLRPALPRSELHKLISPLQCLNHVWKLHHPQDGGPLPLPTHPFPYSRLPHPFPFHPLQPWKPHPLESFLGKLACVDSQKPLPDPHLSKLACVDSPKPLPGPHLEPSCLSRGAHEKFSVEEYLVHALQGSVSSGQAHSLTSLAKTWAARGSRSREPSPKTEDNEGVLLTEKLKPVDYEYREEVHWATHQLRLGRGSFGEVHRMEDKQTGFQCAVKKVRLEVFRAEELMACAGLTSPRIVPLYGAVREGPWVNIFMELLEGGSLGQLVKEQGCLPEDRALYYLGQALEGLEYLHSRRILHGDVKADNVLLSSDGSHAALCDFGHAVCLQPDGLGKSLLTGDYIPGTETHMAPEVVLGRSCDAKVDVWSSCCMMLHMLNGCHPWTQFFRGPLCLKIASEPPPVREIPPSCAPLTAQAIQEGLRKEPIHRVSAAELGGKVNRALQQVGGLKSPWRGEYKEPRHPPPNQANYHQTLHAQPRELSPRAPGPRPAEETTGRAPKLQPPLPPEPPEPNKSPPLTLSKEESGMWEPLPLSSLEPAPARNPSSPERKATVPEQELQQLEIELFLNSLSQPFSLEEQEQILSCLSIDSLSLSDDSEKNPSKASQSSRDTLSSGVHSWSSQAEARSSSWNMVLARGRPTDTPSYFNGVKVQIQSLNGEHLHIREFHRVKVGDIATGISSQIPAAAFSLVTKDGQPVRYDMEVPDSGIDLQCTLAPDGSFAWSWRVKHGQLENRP
Sequence of UniProt P22607 (whole entry, looked up): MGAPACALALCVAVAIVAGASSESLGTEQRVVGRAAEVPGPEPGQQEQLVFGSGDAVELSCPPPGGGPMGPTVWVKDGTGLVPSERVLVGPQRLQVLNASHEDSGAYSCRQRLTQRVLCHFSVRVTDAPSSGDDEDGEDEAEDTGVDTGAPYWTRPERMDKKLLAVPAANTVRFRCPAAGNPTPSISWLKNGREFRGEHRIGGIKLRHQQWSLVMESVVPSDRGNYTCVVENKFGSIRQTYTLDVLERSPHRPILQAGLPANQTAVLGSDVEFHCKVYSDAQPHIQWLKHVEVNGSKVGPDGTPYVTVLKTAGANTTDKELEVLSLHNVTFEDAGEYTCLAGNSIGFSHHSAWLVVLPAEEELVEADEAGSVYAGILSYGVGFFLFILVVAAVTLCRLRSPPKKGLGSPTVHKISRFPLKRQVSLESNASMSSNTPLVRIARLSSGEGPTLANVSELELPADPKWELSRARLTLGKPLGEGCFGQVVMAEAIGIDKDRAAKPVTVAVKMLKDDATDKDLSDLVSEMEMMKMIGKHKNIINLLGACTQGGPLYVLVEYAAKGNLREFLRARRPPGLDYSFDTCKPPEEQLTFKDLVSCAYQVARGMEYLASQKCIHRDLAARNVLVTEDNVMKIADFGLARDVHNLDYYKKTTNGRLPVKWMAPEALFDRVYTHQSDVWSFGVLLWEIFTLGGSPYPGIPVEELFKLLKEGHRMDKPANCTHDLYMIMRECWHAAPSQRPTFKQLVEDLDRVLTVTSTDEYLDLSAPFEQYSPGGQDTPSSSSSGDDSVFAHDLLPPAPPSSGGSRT
Sequence of UniProt P06239 (whole entry, looked up): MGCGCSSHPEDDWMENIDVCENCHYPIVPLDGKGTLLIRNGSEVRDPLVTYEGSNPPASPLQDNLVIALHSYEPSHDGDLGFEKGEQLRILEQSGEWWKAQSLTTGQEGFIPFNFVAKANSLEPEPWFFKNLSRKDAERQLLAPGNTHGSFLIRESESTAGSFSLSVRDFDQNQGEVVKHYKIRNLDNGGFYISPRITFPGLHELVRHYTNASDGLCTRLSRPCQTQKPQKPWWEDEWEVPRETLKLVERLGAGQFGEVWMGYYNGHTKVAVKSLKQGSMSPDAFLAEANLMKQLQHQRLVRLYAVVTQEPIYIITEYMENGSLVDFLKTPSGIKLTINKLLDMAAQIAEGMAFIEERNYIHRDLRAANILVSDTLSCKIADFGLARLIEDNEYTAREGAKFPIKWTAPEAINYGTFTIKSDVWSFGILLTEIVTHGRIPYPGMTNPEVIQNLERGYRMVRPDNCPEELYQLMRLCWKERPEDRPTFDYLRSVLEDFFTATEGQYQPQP
Sequence of UniProt Q12866 (whole entry, looked up): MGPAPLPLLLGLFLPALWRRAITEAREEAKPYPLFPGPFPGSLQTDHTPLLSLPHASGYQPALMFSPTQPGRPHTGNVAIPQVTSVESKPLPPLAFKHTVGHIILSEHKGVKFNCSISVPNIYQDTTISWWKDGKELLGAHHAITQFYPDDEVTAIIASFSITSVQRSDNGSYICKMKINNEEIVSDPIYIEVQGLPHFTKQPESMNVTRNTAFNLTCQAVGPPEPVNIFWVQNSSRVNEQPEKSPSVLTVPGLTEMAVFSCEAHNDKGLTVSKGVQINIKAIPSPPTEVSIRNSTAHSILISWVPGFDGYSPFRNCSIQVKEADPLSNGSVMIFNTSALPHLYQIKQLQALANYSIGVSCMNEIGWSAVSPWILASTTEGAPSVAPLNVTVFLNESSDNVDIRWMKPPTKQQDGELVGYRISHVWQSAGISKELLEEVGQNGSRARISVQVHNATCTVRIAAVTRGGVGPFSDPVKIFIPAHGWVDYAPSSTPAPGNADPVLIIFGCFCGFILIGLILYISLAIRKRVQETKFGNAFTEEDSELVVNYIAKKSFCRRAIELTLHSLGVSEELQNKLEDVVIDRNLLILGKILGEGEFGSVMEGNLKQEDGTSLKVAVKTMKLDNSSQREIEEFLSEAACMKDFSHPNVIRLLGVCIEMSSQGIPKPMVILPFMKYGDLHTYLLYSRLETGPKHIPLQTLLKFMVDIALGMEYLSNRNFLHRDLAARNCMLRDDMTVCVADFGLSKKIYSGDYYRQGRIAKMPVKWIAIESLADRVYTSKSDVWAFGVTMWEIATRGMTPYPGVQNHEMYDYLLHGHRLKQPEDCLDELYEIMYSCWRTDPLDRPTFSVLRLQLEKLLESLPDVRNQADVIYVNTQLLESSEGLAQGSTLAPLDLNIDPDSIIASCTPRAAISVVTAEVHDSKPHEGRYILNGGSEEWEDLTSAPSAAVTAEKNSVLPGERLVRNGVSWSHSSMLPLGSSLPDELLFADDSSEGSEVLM

Study 1
Target: CCNB3, cyclin fold, Cln2 fusion (human)
Method: yeast growth competition, sequencing
Sample: yeast
Setting: strong parent motif
Relative to: not given
Reading: higher = stronger binding
Endpoint: normalised enrichment score
Starting sequence: viral docking peptide; YKVKRRLVFGADD; partner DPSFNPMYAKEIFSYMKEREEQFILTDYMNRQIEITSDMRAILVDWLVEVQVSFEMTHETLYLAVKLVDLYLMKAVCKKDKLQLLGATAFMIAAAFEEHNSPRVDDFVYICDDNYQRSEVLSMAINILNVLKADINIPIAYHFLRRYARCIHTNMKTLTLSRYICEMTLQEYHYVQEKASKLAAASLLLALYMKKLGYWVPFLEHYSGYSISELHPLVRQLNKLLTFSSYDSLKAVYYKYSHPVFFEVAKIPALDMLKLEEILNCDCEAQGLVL
YKVKRRNVFGADD [L7N]: 0.389
YKVKRNLVFGADD [R6N]: 0.44
YWVKRRLVFGADD [K2W]: 1.24
YKVKRRAVFGADD [L7A]: -0.156
YKMKRRLVFGADD [V3M]: 0.337
YKVKRRLVFGAVD [D12V]: 1.94
YKVKRELVFGADD [R6E]: -0.0977
YKVKRRYVFGADD [L7Y]: 0.0732

Study 2
SMILES: N/C(=N\[N+](=O)[O-])N/N=C\c1ccc(-c2cccc([N+](=O)[O-])c2)o1
Read-out: enzyme activity
Mode: inhibitor
Concentration: 0.5 µM
Relative to: control
Endpoint: remaining activity
MAPK3 (Homo sapiens, UniProt P27361): 88.4%
ACVR1B (Homo sapiens, UniProt P36896): 101%
MAP3K14 (Homo sapiens, UniProt Q99558): 77.9%
FGFR3 (Homo sapiens, UniProt P22607): 99.6%
MAP2K2 (Homo sapiens, UniProt P36507): 78.2%
GSK3B (Homo sapiens, UniProt P49841): 117%
MERTK (Homo sapiens, UniProt Q12866): 92.3%
LCK (Homo sapiens, UniProt P06239): 98.6%
WEE1 (Homo sapiens, UniProt P30291): 100%
CSNK1G3 (Homo sapiens, UniProt Q9Y6M4): 86.2%

Other studies, line by line
Concentration: 10 µM
CN1C[C@H](CNC(=O)OCc2ccccc2)C[C@@H]2c3cccc4c3c(cn4C)C[C@H]21  nuclear SOX9 intensity (mouse MPNST tumor cells; high-content immunofluorescence imaging, item: nuclear SOX9; 12 h, mean of 2 replicates; relative to: DMSO control, higher = more nuclear SOX9): 179 % of DMSO
CN1CCN(C(=O)O[C@H]2c3nccnc3C(=O)N2c2ccc(Cl)cn2)CC1  inhibition (Sarcocystis neurona; parasite growth; 96 h, secondary screen): -20.1%

A few entries again (study 1):
YKVKRRLVFGAVD [D12V]: 1.94
YWVKRRLVFGADD [K2W]: 1.24
